Published values of several laboratories.
Numbered parts are unrelated; each lists some results of a single study.

Block 1 — technique: protein-binding microarray; form: hairpin DNA; medium: in vitro; concentration: not given; reference: not given; direction: higher = stronger binding; constant ends, left off below: GAGGCC … GGCCTCACACTCTT
Target: POU domain, class 6, transcription factor 1, POU and homeodomain (POU6F1, Homo sapiens, UniProt Q14863, residues 311-611)
Setting: whole hairpin DNA, median over replicate spots
Residues (chain): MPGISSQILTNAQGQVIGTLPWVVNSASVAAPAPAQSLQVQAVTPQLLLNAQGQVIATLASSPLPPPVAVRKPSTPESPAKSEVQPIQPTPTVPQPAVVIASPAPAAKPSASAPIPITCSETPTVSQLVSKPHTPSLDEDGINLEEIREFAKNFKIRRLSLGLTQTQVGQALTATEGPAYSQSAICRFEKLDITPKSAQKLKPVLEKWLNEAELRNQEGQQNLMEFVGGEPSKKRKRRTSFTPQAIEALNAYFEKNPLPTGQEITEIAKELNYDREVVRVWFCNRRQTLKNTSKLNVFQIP
For `ATAACGAGGTGCCTCCTGGCACCTCGTTAT (5mC at 31)`, the median fluorescence was 368 a.u.
For `ATGATTAGGTGCCTCCTGGCACCTAATCAT (5mC at 34)`, the median fluorescence was 470 a.u.
With `ACGATGAGGTGCCTCCTGGCACCTCATCGT (5mC at 34)` the median fluorescence was 339 a.u.
For `ATAATGATGTGCCTCCTGGCACATCATTAT`, the median fluorescence was 1180 a.u.
With `ACGATGAGGTGCCTCCTGGCACCTCATCGT (5mC at 8)` the median fluorescence was 336 a.u.
`ATAATTGGGTGCCTCCTGGCACCCAATTAT` gave a median fluorescence of 587 a.u.
For `ACAATGAGGTGCCTCCTGGCACCTCATTGT`, the median fluorescence was 496 a.u.
`ATAATTAGATGCCTCCTGGCATCTAATTAT` gave a median fluorescence of 10700 a.u.
With `ATAATTAGCTGCCTCCTGGCAGCTAATTAT` the median fluorescence was 2420 a.u.
For `ATAATCAGGTGCCTCCTGGCACCTGATTAT (5mC at 12)`, the median fluorescence was 549 a.u.
`ATAATGAGCGGCCTCCTGGCCGCTCATTAT` gave a median fluorescence of 1860 a.u.
With `ATAAATAGGTGCCTCCTGGCACCTATTTAT` the median fluorescence was 572 a.u.
With `GTAATTAGGTGCCTCCTGGCACCTAATTAC` the median fluorescence was 1120 a.u.
The median fluorescence of `ATAATTAGGCGCCTCCTGGCGCCTAATTAT (5mC at 16)` is reported as 1610 a.u.

Block 2 — technique: universal PBM; form: double-stranded DNA, one strand shown; medium: in vitro; concentration: 600 nM; direction: higher = stronger binding
Target: Sal-like protein 4, full length isoform A (SALL4, Homo sapiens, UniProt Q9UJQ4, residues 1-1053)
Sequence of UniProt Q9UJQ4 (whole entry, looked up): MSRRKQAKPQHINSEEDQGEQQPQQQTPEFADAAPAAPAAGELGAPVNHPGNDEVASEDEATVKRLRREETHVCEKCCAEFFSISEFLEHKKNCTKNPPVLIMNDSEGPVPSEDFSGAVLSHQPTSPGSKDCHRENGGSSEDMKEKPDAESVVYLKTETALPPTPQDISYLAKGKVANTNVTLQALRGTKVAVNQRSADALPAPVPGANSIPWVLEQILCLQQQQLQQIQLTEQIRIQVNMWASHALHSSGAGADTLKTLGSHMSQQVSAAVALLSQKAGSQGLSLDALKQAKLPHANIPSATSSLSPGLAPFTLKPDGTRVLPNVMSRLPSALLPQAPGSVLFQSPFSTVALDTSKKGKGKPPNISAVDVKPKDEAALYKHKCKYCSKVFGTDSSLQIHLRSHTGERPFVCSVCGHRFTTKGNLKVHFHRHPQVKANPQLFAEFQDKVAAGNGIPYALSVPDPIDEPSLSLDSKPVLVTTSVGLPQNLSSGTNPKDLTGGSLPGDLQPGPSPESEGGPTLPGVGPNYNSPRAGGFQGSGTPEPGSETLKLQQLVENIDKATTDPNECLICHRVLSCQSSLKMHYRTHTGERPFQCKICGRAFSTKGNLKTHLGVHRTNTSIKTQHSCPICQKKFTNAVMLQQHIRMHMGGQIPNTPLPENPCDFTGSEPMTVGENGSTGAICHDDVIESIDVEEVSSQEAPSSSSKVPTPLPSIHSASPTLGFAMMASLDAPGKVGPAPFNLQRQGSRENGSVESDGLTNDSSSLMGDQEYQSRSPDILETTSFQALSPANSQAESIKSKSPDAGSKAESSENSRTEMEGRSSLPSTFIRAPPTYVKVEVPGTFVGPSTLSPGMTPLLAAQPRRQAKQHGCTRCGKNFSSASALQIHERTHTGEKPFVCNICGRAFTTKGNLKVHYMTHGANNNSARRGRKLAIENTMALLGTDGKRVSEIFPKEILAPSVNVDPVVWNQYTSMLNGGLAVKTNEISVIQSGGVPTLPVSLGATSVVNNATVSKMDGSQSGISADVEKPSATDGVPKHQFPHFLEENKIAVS
Setting: 8-mer, flanks averaged, mean of replicates
For `ACGGGTAT`, the E-score was 0.0664.
For `GACTGACC`, the E-score was -0.287.
`ACCGATGA` has an E-score of 0.103.
The E-score of `AAAGTCAC` is reported as 0.0865.
For `CGTATTGC`, the E-score was -0.0364.
For `GCGTACTA`, the E-score was -0.0503.
With `AACCTGCA` the E-score was -0.0937.
For `AAACCCCT`, the E-score was -0.281.
`AACGCACT` has an E-score of -0.0494.
For `CCCCAGCA`, the E-score was -0.201.
`ATCGGGGG` has an E-score of -0.17.
The E-score of `CGGTATTC` is reported as -0.0385.
With `ACATGTAG` the E-score was 0.213.
`ACTTATAA` has an E-score of 0.307.
With `GTCCAGGA` the E-score was -0.145.
With `CACGTTGC` the E-score was -0.197.
With `AAGCCCGA` the E-score was -0.165.
With `GGTTTCCA` the E-score was -0.0527.
`ATAAAGAC` has an E-score of 0.166.

Block 3 — technique: RNA Bind-n-Seq; form: RNA; medium: in vitro; concentration: 200 nM; setting: whole 134-nt RNA, ends assumed; with: 150 mM KCl; reference: input library; direction: higher = stronger binding
Target: Ras GTPase-activating protein-binding protein 1, full length (G3BP1, Homo sapiens, UniProt Q13283)
Sequence of UniProt Q13283 (whole entry, looked up): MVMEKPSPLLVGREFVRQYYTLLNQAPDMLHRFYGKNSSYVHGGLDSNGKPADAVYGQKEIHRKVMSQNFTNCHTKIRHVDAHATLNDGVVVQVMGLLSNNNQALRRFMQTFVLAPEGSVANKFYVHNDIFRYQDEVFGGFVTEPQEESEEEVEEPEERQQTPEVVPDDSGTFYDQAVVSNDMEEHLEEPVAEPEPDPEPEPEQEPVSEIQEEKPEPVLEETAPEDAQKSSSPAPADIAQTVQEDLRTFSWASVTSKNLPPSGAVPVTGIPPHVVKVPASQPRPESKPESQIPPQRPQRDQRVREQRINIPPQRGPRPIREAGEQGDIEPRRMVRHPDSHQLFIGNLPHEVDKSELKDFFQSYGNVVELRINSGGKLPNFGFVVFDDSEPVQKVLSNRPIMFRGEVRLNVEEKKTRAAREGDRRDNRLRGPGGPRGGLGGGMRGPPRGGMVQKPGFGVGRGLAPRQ
For `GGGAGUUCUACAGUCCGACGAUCUCAAGUCCUGUGCUACACAUCGUAUGUACCGAAUCGGUUGGGUUGGGGUUGGGGAAAGUAUUAUGUUACGCCGUUCGGAUCUGCACUUCCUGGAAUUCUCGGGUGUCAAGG`, the log2 enrichment was 0.635.
`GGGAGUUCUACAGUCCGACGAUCACCAUGCAGGUGGGCAUCUUUGGGACGUGGGGCAAGGGGGGGAUAGGGAGGGGGGUAACACUUUGGGAACAGGUGGUCCCAGGUCGUUUCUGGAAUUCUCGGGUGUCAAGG` gave a log2 enrichment of 1.25.
With `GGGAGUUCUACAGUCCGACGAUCCUCAAGUCCUGUGCUACACAUCGUAUGUACCGAAUCGGAAAAAAAGGAGGAGGAAAGUAUUAUGUUACGCCGUUCGGAUCUGCACUUCCAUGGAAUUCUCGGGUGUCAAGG` the log2 enrichment was -0.556.
For `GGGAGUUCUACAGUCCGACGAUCCCUGUGCUACACAUCGUAUGUACCGAAUCGGGGCCCCCCGGGCCCCCCGGCCCCCCGGGGAAAGUAUUAUGUUACGCCGUUCGGAUCUGCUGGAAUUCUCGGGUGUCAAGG`, the log2 enrichment was -0.698.
`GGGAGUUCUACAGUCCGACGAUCACCAUGCAGGUGGGAAACUUUGGGAAGUGGGGCAAGGGGGGGAUAGGGAGGGGGGUAACACUUUGGGAACAGGUGGUCCCAGGUCGUUUCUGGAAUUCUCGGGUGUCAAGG` has a log2 enrichment of 1.16.
With `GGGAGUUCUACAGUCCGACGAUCUCCUGUGCUACACAUCGUAUGUACCGAAUCGGGGUUUUUUUGGGGAGGGGAAAAAGGGGAAAGUAUUAUGUUACGCCGUUCGGAUCUGCAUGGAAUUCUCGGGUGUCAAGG` the log2 enrichment was 0.446.
`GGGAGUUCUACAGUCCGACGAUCUGGGCAAUGUGUCGGCUGCAUGCACGAGCCAGGAACUGCGCAGCCUCUUCGAGCGCCGCGGACGCGUCAUCGAGUGUGACGUGGUGAAAGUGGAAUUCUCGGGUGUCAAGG` gave a log2 enrichment of -1.49.
For `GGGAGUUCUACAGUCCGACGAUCCACAGACAACACGCACCCAAAAAGACACAGAGGGAAGGGGUUGGGAUGGGGACAGGGUGCACAGCAGGGCGGGGUAGGACCCCAGCCCCUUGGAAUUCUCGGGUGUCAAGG`, the log2 enrichment was 1.92.
`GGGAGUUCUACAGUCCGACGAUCCUCCUGGAGUGGAUCCGGCGCACCAUCCCCUGGCUGGAGGACCGUGUGCCCCAAAAGACUAUCCAGGAGAUGCAGCAGAAGCUGGAGGACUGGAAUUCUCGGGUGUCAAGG` gave a log2 enrichment of -1.2.
With `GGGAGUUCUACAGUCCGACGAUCUCCUGUGCUACACAUCGUAUGUACCGAAUCGGGGAAAAAAGGGAAAAAAGGGAAAAAAGGAAAGUAUUAUGUUACGCCGUUCGGAUCUGCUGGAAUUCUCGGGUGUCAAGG` the log2 enrichment was -0.0838.

Block 4 — technique: protein binding microarray; form: double-stranded DNA, one strand shown; medium: in vitro; concentration: not given; reference: not given; direction: higher = stronger binding
Target: Histone acetyltransferase KAT6A, winged helix 2, GST fusion (KAT6A, Homo sapiens, UniProt Q92794, residues 85-181)
Setting: 8-mer, flanks averaged, mean of 2 arrays, mostly near background
Construct (chain): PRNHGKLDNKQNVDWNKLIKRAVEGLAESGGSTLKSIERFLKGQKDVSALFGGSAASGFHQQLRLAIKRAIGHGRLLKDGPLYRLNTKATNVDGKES
The E-score of `ATTCCAGA` is reported as -0.0428.
`GATTGATA` gave an E-score of 0.0916.
For `CGGAAAGA`, the E-score was 0.0748.
`CCGTGAAG` has an E-score of -0.0271.
`GCGACGCA` gave an E-score of 0.206.
For `AATGTTTA`, the E-score was -0.0994.
`ATAATATC` has an E-score of 0.0441.
With `AATTCAAT` the E-score was 0.0355.
For `CTGAGTGA`, the E-score was 0.0665.
`ACCCTGCC` has an E-score of -0.00348.
For `GAAACGTA`, the E-score was -0.227.
For `AGTCGGTC`, the E-score was -0.246.
`CCGTTTAA` has an E-score of -0.0427.
With `CTATTCGA` the E-score was -0.0559.
`AATACTAG` has an E-score of 0.12.
With `ACACACTC` the E-score was 0.0692.
With `GGATGCAC` the E-score was -0.00392.
`AGCAGTAG` has an E-score of 0.0602.
`ATCCCAGC` has an E-score of 0.102.
`GAGCTAAC` has an E-score of -0.0672.
`AATGTACC` has an E-score of -0.0882.

Block 5 — organism: Saccharomyces cerevisiae; effect on: cell growth; technique: competitive growth deep sequencing; form: peptide; setting: peptide tiling library; with: cyclin F-Cln2 fusion; direction: direction not given
With `PAKRRLELGE` the enrichment score was 3.51.
`SAVPLILPQAPSGPSY` has an enrichment score of 1.46.
For `GLPDFVFQQQPVESEA`, the enrichment score was 0.885.
`TARRIFQEPTEPKTKA` gave an enrichment score of 1.36.
The enrichment score of `PKNAKRNLSSEFAN` is reported as -0.463.
The enrichment score of `KPHVSDEEEEEPPFYH` is reported as 1.21.
`DTERAHSTLDEDLERW` has an enrichment score of -0.156.
For `PKRAKRKLYTSEISSP`, the enrichment score was 1.2.
The enrichment score of `KPKPVKPVTFSTGIKM` is reported as 1.85.
The enrichment score of `FQDSGYNELKSCSFDN` is reported as 0.667.
`PARRRLRLSVDEVSSP` has an enrichment score of 3.48.
With `SSEVARHLLFQSHM` the enrichment score was 2.28.
With `VLVRTSACRSLFGPVD` the enrichment score was 3.37.
`DGCSPIKNWSPMRL` has an enrichment score of 0.678.
With `KRNLLNEFDRII` the enrichment score was 3.58.
`IVLICAKRSLCAAFSV` has an enrichment score of -0.0762.
For `SMTDFYHSKRRLIFSK`, the enrichment score was 3.08.

Some of these lines once more (block 4):
`GATTGATA` gave an E-score of 0.0916.
For `CGGAAAGA`, the E-score was 0.0748.
`CCGTGAAG` has an E-score of -0.0271.
`GCGACGCA` gave an E-score of 0.206.
